Assay results pooled from the literature.
Target: Serine/threonine-protein kinase ULK3 (ULK3, Homo sapiens, UniProt Q6PHR2)

assay	test system	conditions	scale	quantity	value	Structure (SMILES)
binding, competition with immobilised ligand	–	1 µM	–	remaining binding	14%	CCN1CCN(Cc2ccc(NC(=O)c3ccc(C)c(NC(=O)c4cncc(-c5cnn(C)c5)c4)c3)cc2C(F)(F)F)CC1
target engagement, NanoBRET	human cells	–	–	upper asymptote	125	Cc1ccc(C(=O)Nc2ccc(CN3CCN(C)CC3)c(C(F)(F)F)c2)cc1C#Cc1cnc2cccnn12
enzyme activity	–	100 nM, human enzyme, with: 10 µM ATP	reference: untreated	remaining activity	109%	O=C=[N][Ru-4]123([n]4c5ccc(O)cc5c5c6c(c7cc(F)c[n+]1c7c54)C(=O)NC6=O)[S+]1CC[S+]2CC[S+]3CC1 (centres unmarked)
cell-free assay, inhibitor	–	1 µM	–	inhibition	1%	C=CC(=O)N1Cc2nc(-c3cc(-c4cc(Cl)cnc4Cl)c(F)cc3F)n(-c3ccncn3)c2C1
enzyme activity, inhibitor	–	10 µM	–	activity vs control	82%	O=C(Cc1ccc(OCc2ccccc2)cc1)NC1(C(=O)O)CCN(C(=O)c2ccc(-c3cccc(Cl)c3)cc2)CC1
cell-free assay, competition with immobilised ligand	–	10 µM	–	remaining binding	63%	CC(C)=CC1OC(C)(C)C2C=C3C(=O)C(Cl)=CC(O)C3C3C(O)C4OC4C(=O)C132 (centres unmarked)
binding, competition with immobilised ligand	–	1 µM	–	remaining binding	98%	Nc1ncc2c(n1)-c1c([nH]c3ccc(C4=CCOCC4)cc13)CCC2
enzyme activity, inhibitor	–	10 µM	–	inhibition	2%	NC(=O)[C@@H](O)C[C@H]1CCc2sc3ncnc(O[C@H]4CC[C@H](N5CCOCC5)CC4)c3c21
cell-free assay	–	0.1 µM	–	remaining signal	99%	Cc1cnc2nc1Nc1cccc(c1)COC/C=C/COCc1cc(ccc1OCCN1CCOCC1)N2
inhibitor, KinaseProfiler panel	–	1 µM	–	inhibition	-9%	CN1CC[C@@H](COc2cnc(C#N)cc2-c2ccn3nc(NC(=O)C4CC4)cc3c2)C1
enzyme activity, inhibitor	–	0.1 µM	–	inhibition	8%	CN1CCN(Cc2ccc(-c3ccc(CO[C@H]4CCC[C@@H]4NC(=O)c4cc(-c5cnn(C)c5)cnc4N)cc3)cc2)CC1
binding, competition with immobilised ligand	–	3 µM	–	remaining binding	92%	COc1c(Cl)cccc1Nc1c(-c2ccncc2C#C[C@@]2(C)CCCN2C(=O)/C=C/CN(C)C)[nH]c2c1C(=O)NCC2
kinase activity, inhibitor	–	1 µM	reference: untreated control	remaining activity	96%	COc1c(OCCCN2CCOCC2)ccc2c1N=C(NC(=O)c1cnc(N)nc1)N1CCN=C21
binding, competition with immobilised ligand	–	1 µM	–	remaining binding	79%	COc1cc(Nc2nc(C)cc(-c3cnn4nc(OC)ccc34)n2)cc(C(F)(F)F)c1

For quick reference, copied from above:
assay	test system	conditions	scale	quantity	value	Structure (SMILES)
cell-free assay	–	0.1 µM	–	remaining signal	99%	Cc1cnc2nc1Nc1cccc(c1)COC/C=C/COCc1cc(ccc1OCCN1CCOCC1)N2
